Experimental data gathered from unrelated publications.
Each numbered part is a random draw from the data of one study; scales do not carry over between parts. Values joined by “and” are separate records of one study, mostly repeats; a detail may differ.
Sequence of UniProt P00519 (whole entry, unmodified, looked up): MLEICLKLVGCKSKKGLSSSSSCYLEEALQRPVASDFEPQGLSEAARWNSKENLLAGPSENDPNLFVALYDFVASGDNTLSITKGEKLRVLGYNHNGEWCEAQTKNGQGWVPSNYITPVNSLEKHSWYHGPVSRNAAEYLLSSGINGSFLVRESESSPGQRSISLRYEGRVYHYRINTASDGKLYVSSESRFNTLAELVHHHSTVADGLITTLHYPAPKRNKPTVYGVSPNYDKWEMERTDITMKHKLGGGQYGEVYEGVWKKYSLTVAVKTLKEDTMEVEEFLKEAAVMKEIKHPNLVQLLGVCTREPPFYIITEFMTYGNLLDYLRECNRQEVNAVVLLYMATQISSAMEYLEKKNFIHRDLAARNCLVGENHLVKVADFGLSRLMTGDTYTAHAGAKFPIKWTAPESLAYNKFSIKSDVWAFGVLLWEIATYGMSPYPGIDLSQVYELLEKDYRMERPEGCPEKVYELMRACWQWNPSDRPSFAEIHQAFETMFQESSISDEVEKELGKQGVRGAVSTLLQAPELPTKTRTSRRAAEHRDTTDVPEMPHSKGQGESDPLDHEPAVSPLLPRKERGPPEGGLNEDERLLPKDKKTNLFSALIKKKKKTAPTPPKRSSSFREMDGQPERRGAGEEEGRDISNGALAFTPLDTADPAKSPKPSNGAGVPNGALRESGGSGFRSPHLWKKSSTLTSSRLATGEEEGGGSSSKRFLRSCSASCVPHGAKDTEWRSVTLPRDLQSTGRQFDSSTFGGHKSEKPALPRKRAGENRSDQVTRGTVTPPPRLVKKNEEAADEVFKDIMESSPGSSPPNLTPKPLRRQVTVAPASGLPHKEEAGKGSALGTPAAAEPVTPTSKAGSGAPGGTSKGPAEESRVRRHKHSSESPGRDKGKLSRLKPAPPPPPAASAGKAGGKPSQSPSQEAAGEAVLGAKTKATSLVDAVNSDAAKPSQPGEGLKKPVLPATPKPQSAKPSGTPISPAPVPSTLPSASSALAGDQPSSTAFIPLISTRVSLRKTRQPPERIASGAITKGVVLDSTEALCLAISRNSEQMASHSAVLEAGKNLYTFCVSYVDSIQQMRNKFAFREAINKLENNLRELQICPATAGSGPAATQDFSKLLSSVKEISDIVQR
Sequence of UniProt Q13163 (whole entry, looked up): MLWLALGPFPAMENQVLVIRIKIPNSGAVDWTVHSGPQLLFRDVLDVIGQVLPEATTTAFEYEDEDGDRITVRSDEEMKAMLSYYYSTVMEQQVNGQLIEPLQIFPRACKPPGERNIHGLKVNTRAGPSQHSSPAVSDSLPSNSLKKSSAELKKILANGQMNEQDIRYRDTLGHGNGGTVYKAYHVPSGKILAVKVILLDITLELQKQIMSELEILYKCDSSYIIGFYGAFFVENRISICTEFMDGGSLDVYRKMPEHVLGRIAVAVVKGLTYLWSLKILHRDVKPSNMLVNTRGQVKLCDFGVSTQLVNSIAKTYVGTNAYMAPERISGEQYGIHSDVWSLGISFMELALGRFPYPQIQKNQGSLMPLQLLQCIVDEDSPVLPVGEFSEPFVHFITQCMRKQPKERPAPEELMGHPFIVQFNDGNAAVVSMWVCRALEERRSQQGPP
Sequence of UniProt Q13164 (whole entry, looked up): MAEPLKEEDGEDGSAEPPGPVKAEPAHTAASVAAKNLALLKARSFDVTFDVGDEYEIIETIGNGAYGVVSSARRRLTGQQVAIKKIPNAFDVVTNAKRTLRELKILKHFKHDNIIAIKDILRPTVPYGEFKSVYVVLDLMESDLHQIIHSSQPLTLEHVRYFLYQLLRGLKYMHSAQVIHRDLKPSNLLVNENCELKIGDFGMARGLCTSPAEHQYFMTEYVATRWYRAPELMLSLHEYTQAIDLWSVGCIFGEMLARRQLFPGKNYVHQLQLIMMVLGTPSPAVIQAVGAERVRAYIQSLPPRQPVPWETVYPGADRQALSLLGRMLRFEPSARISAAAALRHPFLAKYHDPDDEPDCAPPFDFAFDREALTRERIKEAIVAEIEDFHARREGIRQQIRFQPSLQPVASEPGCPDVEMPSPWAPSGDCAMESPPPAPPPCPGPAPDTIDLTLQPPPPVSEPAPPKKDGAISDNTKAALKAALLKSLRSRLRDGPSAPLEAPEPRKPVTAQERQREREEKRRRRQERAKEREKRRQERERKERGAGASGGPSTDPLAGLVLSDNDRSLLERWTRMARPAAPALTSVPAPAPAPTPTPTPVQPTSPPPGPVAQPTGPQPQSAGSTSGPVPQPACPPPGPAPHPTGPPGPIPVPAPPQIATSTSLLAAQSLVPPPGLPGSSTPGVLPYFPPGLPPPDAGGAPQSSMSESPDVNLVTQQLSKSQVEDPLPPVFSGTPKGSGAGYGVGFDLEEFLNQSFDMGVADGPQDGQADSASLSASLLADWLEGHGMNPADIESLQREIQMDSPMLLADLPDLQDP
Sequence of UniProt Q6XUX3 (whole entry, looked up): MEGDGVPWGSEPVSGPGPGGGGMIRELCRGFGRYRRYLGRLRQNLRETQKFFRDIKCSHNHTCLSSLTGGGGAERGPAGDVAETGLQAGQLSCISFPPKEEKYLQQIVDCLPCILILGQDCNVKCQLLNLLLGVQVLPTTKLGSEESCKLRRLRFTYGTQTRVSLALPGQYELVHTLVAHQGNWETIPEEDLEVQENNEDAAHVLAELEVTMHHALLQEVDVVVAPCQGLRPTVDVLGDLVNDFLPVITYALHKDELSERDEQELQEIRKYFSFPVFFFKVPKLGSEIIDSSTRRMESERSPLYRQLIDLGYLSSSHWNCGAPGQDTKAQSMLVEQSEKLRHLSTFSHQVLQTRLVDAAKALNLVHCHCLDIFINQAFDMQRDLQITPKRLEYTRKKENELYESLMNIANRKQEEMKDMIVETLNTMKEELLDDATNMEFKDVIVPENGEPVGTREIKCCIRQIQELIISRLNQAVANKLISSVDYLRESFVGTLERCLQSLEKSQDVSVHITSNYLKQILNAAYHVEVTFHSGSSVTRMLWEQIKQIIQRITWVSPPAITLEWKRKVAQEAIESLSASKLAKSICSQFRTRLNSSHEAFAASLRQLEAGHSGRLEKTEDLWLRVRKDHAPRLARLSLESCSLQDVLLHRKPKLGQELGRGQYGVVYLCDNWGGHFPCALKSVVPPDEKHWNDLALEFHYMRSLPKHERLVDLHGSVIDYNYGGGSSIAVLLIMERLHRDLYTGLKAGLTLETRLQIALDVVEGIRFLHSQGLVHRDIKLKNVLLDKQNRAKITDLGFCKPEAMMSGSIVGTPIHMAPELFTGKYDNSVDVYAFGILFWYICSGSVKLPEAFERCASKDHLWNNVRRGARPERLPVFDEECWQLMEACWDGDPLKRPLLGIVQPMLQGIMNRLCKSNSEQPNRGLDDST

Block 1
Cell line: normal organoid sample E
Technique: CellTiter-Glo
Host: human
Sample: normal-adjacent epithelium
Tested at: 0.1 µM
Reference: DMSO
Measurement: viability
COCCOc1nc(-c2ccc(Cl)nc2)nc2c1CN(C(=O)c1ncn3ccccc13)CC2: 136% and 126%
Cc1c[nH]c2nccc(Oc3c(F)cc(Nc4cc(Cl)nc(N)n4)cc3F)c12: 121% and 143%
CS(=O)(=O)NCC[C@H](NC(=O)c1cncc2c1cnn2-c1ccc(F)cc1)c1ccnc(S(C)(=O)=O)c1: 200% and 105%
O=C(c1ccc(F)cc1)N1CC(COc2ccc(Br)cc2)(C(=O)O)C1: 92.3% and 101%
COc1ccc2cc(OCC3(C(=O)O)CN(C(=O)c4ccc(F)cc4)C3)ccc2c1: 114% and 111%
CC(C)CC(=O)N1CCc2nc(-c3ccc(Br)cc3)nc(N(C)Cc3ccccc3)c2C1: 148% and 172%
O=C(Nc1ccc(Oc2ccc(F)cc2)cc1)N1CCc2ncccc2[C@H]1c1ccc(F)cc1: 127% and 140%

Block 2
Target: Receptor-type tyrosine-protein kinase FLT3 (FLT3, Homo sapiens, UniProt P36888)
Observed: enzyme activity
Action: inhibitor
Tested at: 0.5 µM
Reference: control
Measurement: remaining activity
O=C1C(Cl)=C(N2C(=O)CCC2=O)C(=O)c2ccccc21: 108%
CN([C@@H](Cc1ccc(OS(=O)(=O)c2cccc3cnccc23)cc1)C(=O)N1CCN(c2ccccc2)CC1)S(=O)(=O)c1cccc2cnccc12: 103%
O=C1c2ccccc2-c2n[nH]c3cccc1c23: 12.5%
O=C(NC(NC(=S)Nc1ccc(F)c([N+](=O)[O-])c1)C(Cl)(Cl)Cl)C(c1ccccc1)c1ccccc1 (stereo not shown): 99.3%
COc1cc2c(cc1OC)-c1[nH]nc(Nc3cccc(F)c3)c1C2: 25%
O=c1cc(-c2cccc3c2Sc2ccccc2S3)oc(N2CCOCC2)c1: 98.4%
C[C@@H]1CCN(C(=O)CC#N)C[C@@H]1N(C)c1ncnc2[nH]ccc12: 77.9%
Cc1nc2cc3nc(-c4cccs4)cnc3cc2n1C: 27.5%
Ic1cccc(CSc2nnc(-c3ccncc3)o2)c1: 102%
CCOc1nc(NC(=O)Cc2cc(OC)ccc2OC)cc(N)c1C#N: 102%
CN(C)C[C@H]1CCn2c(c(C3=C(c4cn(C)c5ccccc45)C(=O)NC3=O)c3ccccc32)C1: 37.1%
O=C(Nc1cccc(Nc2nccc(Nc3cccc(C(F)(F)F)c3)n2)c1)C1CC1: 73.1%
N#Cc1c(NC(=O)c2cccc3ccccc23)sc2c1CCCC2: 111%
Nc1cccc(-c2cc3c(Oc4cccc(O)c4)ncnc3[nH]2)c1: 30.7%
Cc1cn(-c2cc(NC(=O)c3ccc(C)c(Nc4nccc(-c5cccnc5)n4)c3)cc(C(F)(F)F)c2)cn1: 77.4%
N#C/C(=C\c1ccc(O)c(O)c1)C(=O)NCc1ccccc1: 92.8%
c1ccc(-c2cnc(Nc3ccc(OCCN4CCCC4)cc3)s2)cc1: 3.1%
COc1cc2ncnc(Nc3ccc(O)c(Br)c3)c2cc1OC: 6.34%
CCN(CC)C(=O)c1ccc(Nc2nc(OCC3CCCCC3)c3[nH]cnc3n2)cc1: 10.3%
c1ccc(-c2[nH]ncc2-c2ccnc3ccccc23)nc1: 91.2%
COc1cc2ncnc(Nc3cccc(Cl)c3)c2cc1OC: 37.6%
CCN(CC)CCNC(=O)c1c(C)[nH]c(/C=C2\C(=O)Nc3ccc(Cl)cc32)c1C: 0.782%
Cn1nc2c3c(cccc31)C(=O)c1ccccc1-2: 59.3%
Cc1cc2ncc(-c3ccccc3)nc2cc1C: 53.6%

Block 3
Target: Eukaryotic initiation factor 4A-I (EIF4A1, Homo sapiens, UniProt P60842)
Sequence of UniProt P60842 (whole entry, looked up): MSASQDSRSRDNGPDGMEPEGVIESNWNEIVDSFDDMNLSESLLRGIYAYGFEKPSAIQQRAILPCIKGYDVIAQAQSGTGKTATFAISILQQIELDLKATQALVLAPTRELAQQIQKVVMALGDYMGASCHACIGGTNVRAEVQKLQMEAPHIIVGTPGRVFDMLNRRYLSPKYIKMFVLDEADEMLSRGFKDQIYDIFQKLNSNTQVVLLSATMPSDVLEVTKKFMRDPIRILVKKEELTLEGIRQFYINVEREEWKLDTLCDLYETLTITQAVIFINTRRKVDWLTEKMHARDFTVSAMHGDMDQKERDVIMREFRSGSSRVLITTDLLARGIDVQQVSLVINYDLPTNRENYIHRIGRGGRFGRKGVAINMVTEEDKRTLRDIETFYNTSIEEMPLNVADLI
Observed: RNA clamping
Technique: fluorescence polarization
Tested at: concentration not given
With: FAM-labelled poly r(AG)8 RNA
Reading: higher = more clamping
Measurement: fluorescence polarization change
COc1ccc([C@@]23Oc4cc(OC)cc(OC)c4[C@]2(O)c2nc(-c4cccc(OC)c4)[nH]c(=O)c2[C@H]3c2ccccc2)cc1: 13.9 mP and 31.5 mP
COc1ccc([C@]23Oc4cc(OC)cc(OC)c4[C@](O)([C@H](C(=O)NCCCC(OC)OC)[C@H]2c2ccccc2)[C@@H]3O)cc1: 1.3 mP
COc1ccc([C@@]23Oc4cc(OC)cc(OC)c4[C@]2(O)c2nc(-c4ccccc4)n(CC(CC(=O)O)OC)c(=O)c2[C@H]3c2ccccc2)cc1 (stereo partly shown): 0.8 mP
COC(=O)[C@H]1C(=O)[C@@]2(NC(C)C)c3c(OC)cc(OC)cc3O[C@@]2(c2ccc(OC)cc2)[C@@H]1c1ccccc1: 8.4 mP
O[C@H]1C[C@@H](c2ccccc2)[C@]2(c3ccc(Cl)cc3)Oc3cc(OCCN4CCCC4)ccc3[C@]12O: 75.6 mP
COc1ccc([C@@]23Oc4cc(OC)cc(OC)c4[C@]2(O)[C@H](O)[C@H](C(=O)c2cc4ccccc4n2C)[C@H]3c2ccccc2)cc1: 6.5 mP
COc1ccc([C@@]23Oc4cc(OC)cc(OC)c4[C@]2(O)[C@H](O)[C@H](C(=O)c2ccco2)[C@H]3c2ccccc2OC)cc1: 32.5 mP
COC(=O)[C@@H]1[C@@H](O)[C@@]2(O)c3c(OC)cc(OS(=O)(=O)c4ccc(C)cc4)cc3O[C@@]2(c2ccc(OC)cc2)[C@H]1c1ccccc1: 7.3 mP
COC(=O)C1=C(OS(=O)(=O)c2ccc(C)cc2)[C@@]2(O)c3c(OC)cc(OC)cc3O[C@@]2(c2ccc(OC)cc2)[C@@H]1c1ccccc1: 15.4 mP

Block 4
Compound: Cc1ccc(NC(=O)c2ccnc(C(F)(F)F)c2)cc1-c1cc(OCCO)nc(N2CCOCC2)c1
Tested at: 1 µM
Measurement: remaining binding
Dual serine/threonine and tyrosine protein kinase (DSTYK, Homo sapiens, UniProt Q6XUX3); competitive binding panel, item: RIPK5; reference: vehicle: 90%
Dual specificity mitogen-activated protein kinase kinase 5 (MAP2K5, Homo sapiens, UniProt Q13163); competitive binding panel, item: MEK5; reference: vehicle: 95%
Death-associated protein kinase 3 (DAPK3, Homo sapiens, UniProt O43293); competitive binding panel; reference: vehicle: 100%
Mitogen-activated protein kinase 7 (MAPK7, Homo sapiens, UniProt Q13164); competitive binding panel, item: ERK5; reference: vehicle: 100%
Tyrosine-protein kinase ABL1 (ABL1, Homo sapiens, UniProt P00519, H396P); competitive binding scan: 83%
Serine/threonine-protein kinase PAK 2 (PAK2, Homo sapiens, UniProt Q13177); competitive binding panel; reference: vehicle: 100%
Tyrosine-protein kinase ABL1 (ABL1, Homo sapiens, UniProt P00519); competitive binding, scanMAX; nonphosphorylated, 1000 nM: 58%
Activin receptor type-2B (ACVR2B, Homo sapiens, UniProt Q13705); competitive binding panel; reference: vehicle: 87%
Tyrosine-protein kinase FRK (FRK, Homo sapiens, UniProt P42685); competitive binding panel; reference: vehicle: 55%
MAP kinase-interacting serine/threonine-protein kinase 1 (MKNK1, Homo sapiens, UniProt Q9BUB5); competitive binding panel; reference: vehicle: 85%
Serine/threonine-protein kinase BRSK1 (BRSK1, Homo sapiens, UniProt Q8TDC3); competitive binding panel; reference: vehicle: 93%
Tyrosine-protein kinase Fer (FER, Homo sapiens, UniProt P16591); competitive binding panel; reference: vehicle: 89%
Cyclin-dependent kinase 8 (CDK8, Homo sapiens, UniProt P49336); competitive binding panel; reference: vehicle: 100%
Serine/threonine-protein kinase 26 (STK26, Homo sapiens, UniProt Q9P289); competitive binding panel, item: MST4; reference: vehicle: 85%
Cyclin-dependent kinase-like 5 (CDKL5, Homo sapiens, UniProt O76039); competitive binding panel; reference: vehicle: 100%

For quick reference, copied from above (block 3):
COC(=O)[C@H]1C(=O)[C@@]2(NC(C)C)c3c(OC)cc(OC)cc3O[C@@]2(c2ccc(OC)cc2)[C@@H]1c1ccccc1: 8.4 mP
COC(=O)C1=C(OS(=O)(=O)c2ccc(C)cc2)[C@@]2(O)c3c(OC)cc(OC)cc3O[C@@]2(c2ccc(OC)cc2)[C@@H]1c1ccccc1: 15.4 mP
COc1ccc([C@@]23Oc4cc(OC)cc(OC)c4[C@]2(O)c2nc(-c4ccccc4)n(CC(CC(=O)O)OC)c(=O)c2[C@H]3c2ccccc2)cc1 (stereo partly shown): 0.8 mP
COc1ccc([C@@]23Oc4cc(OC)cc(OC)c4[C@]2(O)[C@H](O)[C@H](C(=O)c2ccco2)[C@H]3c2ccccc2OC)cc1: 32.5 mP
O[C@H]1C[C@@H](c2ccccc2)[C@]2(c3ccc(Cl)cc3)Oc3cc(OCCN4CCCC4)ccc3[C@]12O: 75.6 mP
